Published values gathered from unrelated publications.
Each numbered part is a random draw from the data of one study; scales do not carry over between parts. Positions count from the first letter of the parent shown.

Series 1
Target: Sal-like protein 4, full length isoform B (SALL4, Homo sapiens, UniProt Q9UJQ4-2, residues 1-616)
Method: universal PBM
Molecule type: double-stranded DNA, one strand shown
Matrix: in vitro
Tested at: not given
Setting: 8-mer, flanks averaged, mean of replicates
Reading: higher = stronger binding
Residues (chain): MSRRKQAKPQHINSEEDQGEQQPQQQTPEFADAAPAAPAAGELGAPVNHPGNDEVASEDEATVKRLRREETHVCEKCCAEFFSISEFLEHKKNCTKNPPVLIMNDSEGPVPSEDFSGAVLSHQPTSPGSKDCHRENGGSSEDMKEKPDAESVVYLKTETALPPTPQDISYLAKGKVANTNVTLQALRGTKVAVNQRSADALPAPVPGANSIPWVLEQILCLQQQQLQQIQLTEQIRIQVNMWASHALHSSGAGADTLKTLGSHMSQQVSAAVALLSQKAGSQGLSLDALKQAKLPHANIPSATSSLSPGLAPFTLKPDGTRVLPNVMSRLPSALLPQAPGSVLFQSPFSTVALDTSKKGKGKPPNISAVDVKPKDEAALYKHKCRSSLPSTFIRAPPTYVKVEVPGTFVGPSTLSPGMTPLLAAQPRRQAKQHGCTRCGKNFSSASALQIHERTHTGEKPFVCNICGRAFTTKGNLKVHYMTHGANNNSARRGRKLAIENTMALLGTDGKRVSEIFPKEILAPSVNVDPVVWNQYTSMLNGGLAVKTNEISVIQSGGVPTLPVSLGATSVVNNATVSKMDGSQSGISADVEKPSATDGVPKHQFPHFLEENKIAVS
Sequence | E-score
CAAACAAC | 0.113
ATGGACCA | 0.0459
CTCCAAAG | -0.0904
AAGCCACT | -0.0744
ATGCGGAA | -0.0137

Series 2
Target: RNA binding protein fox-1 homolog 2, RRM domain, GST-SBP tag (RBFOX2, Homo sapiens, UniProt O43251-10, residues 100-194)
Method: RNA Bind-n-Seq
Molecule type: RNA
Matrix: in vitro
Tested at: 365 nM
Setting: natural RNA segment, single round, ends assumed
Reference: no-protein control
Reading: higher = stronger binding
Constant ends, left off below: GGGAGUUCUACAGUCCGACGAUC … UGGAAUUCUCGGGUGCCAA
Construct (chain): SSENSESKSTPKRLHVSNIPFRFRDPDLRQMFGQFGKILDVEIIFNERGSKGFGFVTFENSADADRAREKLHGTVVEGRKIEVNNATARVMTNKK
Sequence | RBNS enrichment (R)
GAUGCAGCCCCAGAGGCUGGUGGCAGUUUCCUGUCCAUUGGUAGGUGACGGCCCCUGGCUCAGGCAGAGGGAGAUGGUUAGACUCUUGCAGGGCUAAAACUCUAAUUUGG | 0.772
GAUGUAAAUCUGUUUUUUAAAAACACUUUUUAGGGGCUUGAGAGCUGCCACCUGGCAUUUAGUUUAGUGCGGCCAGUGACUGCUUCAAGAGACUUCUGACCUUGCUUCCC | 1.65
UAUCCUGCACUUAAACUGAGUUUAAACUCUUUCAGCAGAUCUCCCUUCGUGGUAUCUUCACAGAUCACAAGUAAAUGUGAAUCUGAAAGAUAGCAUCCACACAAAAUUCU | 0.319
AAAUAUUCUCUUCAAAUGCCACCUUCUCAAUUUAUAACUAAAAUAGUGUUAUCUGACUAAUUCCUCUGAAUUUUGAUGUAAGAUCUAUAUAGGCCCCCAAAAUGAUCGUA | 0.863
UGUUUAUCUUGUGCAGAUAAACACAAAGAGAAGGUGCUUGCUAGCAGGGACACUGCUGCCAUGUCCCAACAAGCUGUUCAGUUUAAACUGCUGAAUGACAUUAUUUGAGC | 0.293
CUUUGAGUUUCCAUAUUGAAUGUGUUUGGACUAAACAAACAAUAAACUACUGAUGUCUGCAGCAUUUUCUAUGUCCCUAAUUUAAUCUAUAGUUUUUAUUGUUCCCAAAU | 0.701
GUGCACACAAACCUUAACAAGACUGCAAAUACUCCAGAAGGAAGUCAUUUAGUUAUGAACGAAAUAAGAAAAGUGAGAACUUCAAAAGCUGUGGUCUUAAAUACUAGACC | 0.901
AUAUUUUUUAAACCGAAAUCUGUGGAUGAAAUAGAAGCUGGAGCCCUCCUCUUGGAAUAUUCAGCCUAAGAACCUCAUAGGACUAUGAAUUCACCCGAAAUUCUCAUUUG | 0.204
UCUUAUAUUGAGUCAGAUGCAUACUUUUAGAUUUGCAUUGGGGAAAAUGUACUAGCUAAAAAUGGAUACACAAUGAAGAAUUCUAUUUGGCUAAUUAAGAAUGAUAUACU | 1.01

Series 3
Target: CCND1, cyclin fold, Cln2 fusion (human)
Method: yeast growth competition, sequencing
Matrix: yeast
Setting: strong parent motif
Reference: not given
Reading: higher = stronger binding
Starting sequence: PKN2 docking peptide (human); VSAVQKLDFSDTM; partner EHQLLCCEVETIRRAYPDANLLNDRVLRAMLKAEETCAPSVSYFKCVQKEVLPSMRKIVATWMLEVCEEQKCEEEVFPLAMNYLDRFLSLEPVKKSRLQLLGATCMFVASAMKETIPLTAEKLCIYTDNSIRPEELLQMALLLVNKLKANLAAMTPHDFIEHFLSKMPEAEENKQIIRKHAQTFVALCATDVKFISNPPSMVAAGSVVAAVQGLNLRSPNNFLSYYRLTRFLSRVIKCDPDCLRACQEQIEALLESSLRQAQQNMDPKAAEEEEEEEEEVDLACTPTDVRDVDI
Substitution | normalised enrichment score
VSAVQKLDFWDTM [S10W] | 1.28
ESAVQKLDFSDTM [V1E] | 1.36
VSAVQKLDMSDTM [F9M] | -0.0662
VSACQKLDFSDTM [V4C] | 1.15
VSAVQKLDFSDAM [T12A] | 1.98
VSAVQTLDFSDTM [K6T] | 1.15
VSAVQKLDFSDTG [M13G] | 1.9

Mixed results
Substance | target | assay | system | conditions | how to read | endpoint | result
PhoQ, residues 284 288 289 292 302 303 TLMATV | PhoP, residues 12 14 15 18 19 NFCKL (Escherichia coli, UniProt P23836) | Sort-seq, item: YFP reporter | E. coli | PhoQ-PhoP variant library, with: 10 µM Mg2+ | reference: high Mg2+ state, higher = stronger signaling | fold induction | 14.3

Excerpt of the above (series 3):
Substitution | normalised enrichment score
VSACQKLDFSDTM [V4C] | 1.15
VSAVQKLDMSDTM [F9M] | -0.0662
VSAVQTLDFSDTM [K6T] | 1.15
